Results collected from several papers.
Compare with care: the assays were run in different laboratories. Several values in a cell are separate wells, animals, samples, runs or records. Numbers after ± are the reported error.
Sequence of UniProt P25025 (whole entry, looked up): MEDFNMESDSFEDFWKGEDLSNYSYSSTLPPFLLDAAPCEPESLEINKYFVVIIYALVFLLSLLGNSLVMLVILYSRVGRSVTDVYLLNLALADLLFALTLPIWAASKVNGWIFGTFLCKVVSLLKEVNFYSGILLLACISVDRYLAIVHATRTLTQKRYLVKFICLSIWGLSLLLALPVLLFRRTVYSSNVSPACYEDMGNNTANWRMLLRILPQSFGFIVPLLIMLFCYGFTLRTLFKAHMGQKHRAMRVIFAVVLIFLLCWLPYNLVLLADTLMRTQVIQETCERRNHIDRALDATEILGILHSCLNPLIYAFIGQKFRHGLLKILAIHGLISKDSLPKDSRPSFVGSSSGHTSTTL
Sequence of UniProt Q9Y271 (whole entry, looked up): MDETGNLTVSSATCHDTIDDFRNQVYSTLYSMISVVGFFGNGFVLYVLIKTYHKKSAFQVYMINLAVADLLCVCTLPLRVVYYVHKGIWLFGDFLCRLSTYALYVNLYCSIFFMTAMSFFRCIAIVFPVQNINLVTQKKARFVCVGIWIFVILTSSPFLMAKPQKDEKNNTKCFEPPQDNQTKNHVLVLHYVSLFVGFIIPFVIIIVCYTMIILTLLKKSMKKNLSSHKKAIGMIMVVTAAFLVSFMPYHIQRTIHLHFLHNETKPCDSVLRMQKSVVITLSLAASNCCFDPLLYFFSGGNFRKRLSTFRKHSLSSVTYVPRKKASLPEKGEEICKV
Sequence of UniProt P48146 (whole entry, looked up): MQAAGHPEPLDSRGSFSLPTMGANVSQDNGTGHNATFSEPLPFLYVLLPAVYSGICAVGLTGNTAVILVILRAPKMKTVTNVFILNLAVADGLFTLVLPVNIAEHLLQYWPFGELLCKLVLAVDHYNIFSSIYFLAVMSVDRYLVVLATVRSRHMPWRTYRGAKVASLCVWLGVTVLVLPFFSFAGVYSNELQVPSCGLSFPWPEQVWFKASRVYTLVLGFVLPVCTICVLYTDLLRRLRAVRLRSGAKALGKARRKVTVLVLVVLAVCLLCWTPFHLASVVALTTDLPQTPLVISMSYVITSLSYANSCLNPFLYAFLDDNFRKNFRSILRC
Sequence of UniProt Q9H2G2 (whole entry, looked up): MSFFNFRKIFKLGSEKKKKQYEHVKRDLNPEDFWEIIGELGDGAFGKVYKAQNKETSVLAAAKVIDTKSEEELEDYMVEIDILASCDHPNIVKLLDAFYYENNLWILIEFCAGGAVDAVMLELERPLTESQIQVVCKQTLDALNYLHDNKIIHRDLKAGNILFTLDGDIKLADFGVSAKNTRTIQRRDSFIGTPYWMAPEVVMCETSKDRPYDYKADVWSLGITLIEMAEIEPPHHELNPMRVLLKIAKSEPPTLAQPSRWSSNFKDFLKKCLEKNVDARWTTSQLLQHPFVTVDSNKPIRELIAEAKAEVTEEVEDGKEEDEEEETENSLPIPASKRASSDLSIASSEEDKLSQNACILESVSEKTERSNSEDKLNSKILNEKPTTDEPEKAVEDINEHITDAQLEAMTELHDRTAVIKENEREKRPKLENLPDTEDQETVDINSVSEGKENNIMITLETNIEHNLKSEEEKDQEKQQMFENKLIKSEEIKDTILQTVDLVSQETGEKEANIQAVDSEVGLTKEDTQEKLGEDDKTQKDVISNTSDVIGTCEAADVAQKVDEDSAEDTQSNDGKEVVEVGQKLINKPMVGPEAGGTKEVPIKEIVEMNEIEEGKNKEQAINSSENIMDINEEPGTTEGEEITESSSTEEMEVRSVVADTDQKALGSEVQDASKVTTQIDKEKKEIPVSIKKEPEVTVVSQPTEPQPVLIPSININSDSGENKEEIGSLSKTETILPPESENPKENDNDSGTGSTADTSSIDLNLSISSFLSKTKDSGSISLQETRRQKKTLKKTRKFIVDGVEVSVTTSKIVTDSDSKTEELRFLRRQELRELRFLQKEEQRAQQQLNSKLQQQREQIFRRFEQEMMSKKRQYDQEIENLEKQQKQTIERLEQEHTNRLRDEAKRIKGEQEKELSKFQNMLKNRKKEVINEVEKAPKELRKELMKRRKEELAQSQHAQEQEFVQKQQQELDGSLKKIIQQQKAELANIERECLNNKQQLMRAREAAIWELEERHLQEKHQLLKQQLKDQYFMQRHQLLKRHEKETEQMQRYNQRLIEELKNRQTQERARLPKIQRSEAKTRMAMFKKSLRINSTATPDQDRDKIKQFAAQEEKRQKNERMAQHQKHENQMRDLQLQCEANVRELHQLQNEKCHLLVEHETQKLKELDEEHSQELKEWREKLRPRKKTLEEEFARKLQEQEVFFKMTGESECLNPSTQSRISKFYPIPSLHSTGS
Sequence of UniProt Q16288 (whole entry, looked up): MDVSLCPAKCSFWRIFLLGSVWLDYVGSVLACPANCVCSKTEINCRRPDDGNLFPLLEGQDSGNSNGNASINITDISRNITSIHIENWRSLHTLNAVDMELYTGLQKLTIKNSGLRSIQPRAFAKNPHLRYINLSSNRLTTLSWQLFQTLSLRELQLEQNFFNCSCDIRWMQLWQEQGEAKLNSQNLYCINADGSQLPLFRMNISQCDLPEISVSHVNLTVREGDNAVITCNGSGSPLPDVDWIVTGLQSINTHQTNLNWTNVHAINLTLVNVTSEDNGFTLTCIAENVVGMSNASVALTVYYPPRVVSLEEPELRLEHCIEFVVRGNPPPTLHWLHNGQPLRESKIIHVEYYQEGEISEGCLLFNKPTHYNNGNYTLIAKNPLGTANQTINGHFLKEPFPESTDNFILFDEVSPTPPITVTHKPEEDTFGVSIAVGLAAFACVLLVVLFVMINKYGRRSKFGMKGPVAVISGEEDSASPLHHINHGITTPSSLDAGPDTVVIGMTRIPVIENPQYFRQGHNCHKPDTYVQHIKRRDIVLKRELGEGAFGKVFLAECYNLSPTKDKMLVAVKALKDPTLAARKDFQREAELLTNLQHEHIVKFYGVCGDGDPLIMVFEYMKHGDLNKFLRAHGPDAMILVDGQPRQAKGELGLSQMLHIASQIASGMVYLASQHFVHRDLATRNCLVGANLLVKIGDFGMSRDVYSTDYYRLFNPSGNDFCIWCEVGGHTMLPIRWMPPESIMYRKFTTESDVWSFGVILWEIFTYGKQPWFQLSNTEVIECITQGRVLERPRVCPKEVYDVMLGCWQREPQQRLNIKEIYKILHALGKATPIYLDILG
Sequence of UniProt P10721 (whole entry, unmodified, looked up): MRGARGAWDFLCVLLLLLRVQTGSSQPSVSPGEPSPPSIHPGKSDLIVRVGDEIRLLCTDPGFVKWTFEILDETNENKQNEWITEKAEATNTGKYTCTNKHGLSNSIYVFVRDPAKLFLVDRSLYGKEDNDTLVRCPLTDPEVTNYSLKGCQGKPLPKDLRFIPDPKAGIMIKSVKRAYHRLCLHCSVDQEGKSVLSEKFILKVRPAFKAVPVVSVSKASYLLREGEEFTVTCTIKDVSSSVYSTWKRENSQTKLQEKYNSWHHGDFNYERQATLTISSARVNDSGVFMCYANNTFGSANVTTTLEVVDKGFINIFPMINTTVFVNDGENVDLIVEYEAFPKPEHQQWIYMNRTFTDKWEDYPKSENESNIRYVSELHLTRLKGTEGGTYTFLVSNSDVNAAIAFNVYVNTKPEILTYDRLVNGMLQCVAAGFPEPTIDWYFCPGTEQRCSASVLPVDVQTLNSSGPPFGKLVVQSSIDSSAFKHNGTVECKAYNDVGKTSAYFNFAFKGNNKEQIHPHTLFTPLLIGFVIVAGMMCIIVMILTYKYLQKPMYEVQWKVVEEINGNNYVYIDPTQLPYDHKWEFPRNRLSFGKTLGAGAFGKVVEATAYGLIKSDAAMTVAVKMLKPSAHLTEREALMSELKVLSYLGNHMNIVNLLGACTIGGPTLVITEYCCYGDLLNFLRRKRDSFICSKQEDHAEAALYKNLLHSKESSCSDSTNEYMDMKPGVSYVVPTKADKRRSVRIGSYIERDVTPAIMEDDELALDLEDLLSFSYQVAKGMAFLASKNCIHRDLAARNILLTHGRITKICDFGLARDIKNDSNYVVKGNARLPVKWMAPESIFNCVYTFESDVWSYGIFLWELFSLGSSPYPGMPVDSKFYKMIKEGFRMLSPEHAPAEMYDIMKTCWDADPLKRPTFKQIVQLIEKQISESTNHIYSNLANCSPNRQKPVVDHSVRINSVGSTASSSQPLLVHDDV
Sequence of UniProt Q8NB16 (whole entry, looked up): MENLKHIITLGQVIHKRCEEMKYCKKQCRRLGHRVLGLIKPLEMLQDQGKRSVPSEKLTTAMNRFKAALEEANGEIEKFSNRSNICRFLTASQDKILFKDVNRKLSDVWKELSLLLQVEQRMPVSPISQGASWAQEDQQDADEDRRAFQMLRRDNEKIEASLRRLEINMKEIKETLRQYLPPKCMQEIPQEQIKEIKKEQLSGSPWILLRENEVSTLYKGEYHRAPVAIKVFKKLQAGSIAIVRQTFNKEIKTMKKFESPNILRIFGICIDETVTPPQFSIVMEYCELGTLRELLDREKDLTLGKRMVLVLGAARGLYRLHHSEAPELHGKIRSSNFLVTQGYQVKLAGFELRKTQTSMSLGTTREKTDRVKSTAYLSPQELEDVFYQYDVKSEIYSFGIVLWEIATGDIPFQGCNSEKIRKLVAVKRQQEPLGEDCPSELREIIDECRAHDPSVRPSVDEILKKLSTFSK
Sequence of UniProt Q9UNU6 (whole entry, unmodified, looked up): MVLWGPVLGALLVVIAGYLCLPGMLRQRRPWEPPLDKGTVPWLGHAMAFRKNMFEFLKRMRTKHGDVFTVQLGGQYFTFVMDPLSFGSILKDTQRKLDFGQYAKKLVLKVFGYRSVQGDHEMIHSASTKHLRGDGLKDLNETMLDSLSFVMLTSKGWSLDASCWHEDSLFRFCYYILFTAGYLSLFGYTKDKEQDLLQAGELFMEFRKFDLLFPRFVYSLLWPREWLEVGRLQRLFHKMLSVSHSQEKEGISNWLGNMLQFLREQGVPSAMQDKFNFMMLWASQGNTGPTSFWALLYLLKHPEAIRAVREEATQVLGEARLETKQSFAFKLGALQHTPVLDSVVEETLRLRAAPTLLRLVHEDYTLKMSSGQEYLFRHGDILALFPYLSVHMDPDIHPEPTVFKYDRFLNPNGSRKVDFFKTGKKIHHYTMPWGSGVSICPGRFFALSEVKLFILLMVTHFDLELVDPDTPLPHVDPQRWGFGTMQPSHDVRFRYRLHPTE

CC(C)[C@H]1NC(=O)C[C@H]2/C=C/CCSSC[C@@H](NC1=O)C(=O)N[C@H](Cc1cccc3ccccc13)C(=O)NCC(=O)O2 has an inhibition of 3.5% (FER (Homo sapiens, UniProt P16591); enzyme activity, inhibitor; 10 µM).
With O=C1NC2(CC2)COc2ncc(F)cc2[C@H]2COCCN2c2ccn3ncc1c3n2 the total cholesterol was 1.51 ± 0.31 mmol/L (Sprague-Dawley rat, female, serum; oral, 5 mg/kg/day, 4 weeks daily, end of recovery period).
N[C@H](C(=O)N1CCCC1)C1CCN(c2nccc3c(-c4ncc(Cl)cc4Cl)cccc23)CC1 has an inhibition of 0.8% (TAOK2 (Homo sapiens, UniProt Q9UL54); kinase activity, inhibitor; 10 µM, with: ATP 1 mM).
For CN[C@@H]1[C@H](O)[C@H](NC)[C@H]2O[C@]3(O)[C@H](O[C@@H]2[C@H]1O)O[C@H](C)C[C@H]3NC(=O)Cc1cc(Cl)ccn1, the inhibition was -1% (Interleukin-1 receptor type 1 (Il1r1, Mus musculus, UniProt P13504); 10 µM).
The inhibition of CCC1CC(c2ccc(C(=O)O)cc2C)=NN1c1ccc(C#N)c(Cl)c1 (stereo not shown) is reported as 0% (EZH2 (Homo sapiens, UniProt Q15910); enzyme activity, inhibitor; 10 µM).
Cc1cc(C(=O)Nc2nc3cccc(C)c3n2[C@H]2CCCCN(C(=O)/C=C/CN(C)C)C2)ccn1 gave a survival of 45.9% and 59.6% and 58.7% and 54.7% (Trypanosoma brucei brucei; 2T1 CLK1 overexpressing; 0.0195 µM, DMSO pretreated; reference: maximum).
For Cc1cc(-c2ccc3ccccc3c2)nnc1NCCN1CCN(C)CC1, inhibition read “negative” (SLC22A1 (Homo sapiens, UniProt O15245); transport; concentration not given).
For COc1ccccc1-c1n[nH]c2nc(NC3CCN(C(=O)Cc4ccc(F)cc4F)CC3)ncc12, the relative abundance was 0.71 (bead binding, competition bead pull-down, measured: LINJ.34.0870; Leishmania donovani extract; 10 µM; reference: vehicle).
Cc1ccc2c(n1)c(-c1cccc(S(C)(=O)=O)c1)c(C)n2C/C(F)=C/CN gave an inhibition of -13% (PDE4 (human); 10 µM).
CS(C)(=O)=Nc1ccc(-c2ccc(-c3nc4cc(O[C@@H]5CO[C@H]6[C@@H]5OC[C@H]6O)[nH]c4cc3F)cc2)cc1 has an inhibition of 0% (STK17A (Homo sapiens, UniProt Q9UEE5); enzyme activity, inhibitor; 10 µM).
CCCCCCCCCCCCCCCCCC(=O)NC[C@H]1CC[C@H](C(=O)N[C@@H](CCC(=O)NCCCOCCOCCOCCCNC(=O)COCC(=O)N[C@@H](Cc2ccc(O)cc2)C(=O)NC(C)(Cc2ccccc2)C(=O)N[C@@H](CC(C)C)C(=O)N[C@@H](CCCC)C(=O)N[C@@H](CCCNC(=N)N)C(=O)N2CCC[C@H]2C(=O)N[C@@H](CCCNC(=N)NC)C(=O)N[C@@H](CC(N)=O)C(N)=O)C(=O)O)CC1 (stereo partly shown) gave an inhibition of 65% (NPBWR2 (Homo sapiens, UniProt P48146); antagonist, DiscoverX GPCR panel; 1 µM).
With O=C1NC(=O)c2c1c1cc(F)c[n+]3c1c1c2c2cc(O)ccc2[n]1[Ru-4]312([N]=C=S)[S+]3CC[S+]1CC[S+]2CC3 (stereo not shown) the remaining activity was 96% (CDC42BPB (Homo sapiens, UniProt Q9Y5S2); enzyme activity; 100 nM, human enzyme, with: 10 µM ATP; reference: untreated).
With CN(C)[C@H]1C[C@@]23CC[C@@]4(O2)C(=CC[C@]2(C)[C@@H](c5ccc6ccncc6c5)CC[C@H]24)C=C3[C@@H](O)[C@@H]1O the inhibition was -3.5% (MLKL (Homo sapiens, UniProt Q8NB16); ATP probe labelling, inhibitor, KiNativ profiling; 0.1 µM).
CC(C)(C)C(=O)OCOP(=O)(OCOC(=O)C(C)(C)C)C1CCCN(O)C1=O (stereo not shown) gave a log TGI of -4.93 log M (SF-539).
For Cc1cc(Nc2nc(C[C@@]3(C(=O)O)CCN(Cc4cccc(Cl)c4F)[C@H](C)C3)cc(C)c2F)[nH]n1, the inhibition was -9.65% (HTR1A (Homo sapiens, UniProt P08908); inhibitor; 10 µM).
CCC(O)CN1CCN(C(=O)Cc2cn3ccccc3n2)CC1 (stereo not shown) has an inhibition of 23.9% (Cholinesterase (BCHE, Homo sapiens, UniProt P06276); enzyme activity, inhibitor, Ellman; 10 µM).
The inhibition of O=C(O)c1ccccc1/C=N/Nc1nc(-c2ccccc2Cl)cs1 is reported as -5.12% (NTRK3 (Homo sapiens, UniProt Q16288); enzyme activity, inhibitor; 1 µM).
For Nc1ccc(/C=C/C(=O)N2CCc3c(oc4c(-c5ccc(F)cc5)cc(-c5ccc(C(=O)N6CCC(F)(F)CC6)cn5)cc34)C2)cn1, the remaining binding was 100% (COQ8A (Homo sapiens, UniProt Q8NI60); binding, competition with immobilised ligand; 1 µM).
Cc1sc2c(c1C)C(c1ccc(Cl)cc1)=NC(CC(=O)OC(C)(C)C)c1nnc(C)n1-2 (stereo not shown) has a specific binding of 105% (CXCR2 (Homo sapiens, UniProt P25025); agonist radioligand binding; 1 µM).
C[C@]12C(c3cccnc3)=C[C@H]3[C@@H](CCC4=C[C@H](O)CC[C@@]43C)[C@@H]1CC[C@@H]2O gave an inhibition of 87% (7-alpha-hydroxycholest-4-en-3-one 12-alpha-hydroxylase (Homo sapiens, UniProt Q9UNU6, W281F); inhibitor; 80 µM, with: 7α-hydroxycholest-4-en-3-one).
COc1ccccc1-c1n[nH]c2nc(N[C@H]3CC[C@H](NS(=O)(=O)CC(C)C)CC3)ncc12 — result for “relative captured amount”: 0.84 (LINJ.11.1000; bead competition pull-down; Leishmania extract; 1.25 µM; reference: vehicle).
COc1ccc(F)cc1S(=O)(=O)Nc1cnc2c(c1)C(=O)NCCO2 has an inhibition of 1% (5-HT1B receptor; radioligand binding; 10 µM).
With CN(/N=C/c1ccccc1C(=O)O)c1nc(-c2ccccc2Cl)cs1 the inhibition was -15.8% (BRSK2 (Homo sapiens, UniProt Q8IWQ3); enzyme activity, inhibitor; 1 µM).
The inhibition of CN[C@@H]1[C@H](O)[C@H](NC)[C@H]2O[C@]3(O)[C@H](O[C@@H]2[C@H]1O)O[C@H](C)C[C@H]3NC(=O)Cc1ccc(Cl)cn1 is reported as 13% (CYSLTR1 (Homo sapiens, UniProt Q9Y271); ligand displacement, radioligand; 10 µM).
For C=CC(=O)Nc1cc(-c2nn(C3CCC(N4CCN(C(C)=O)CC4)CC3)c3ncnc(N)c23)ccc1Oc1ccccc1 (stereo not shown), the inhibition was 3.4% (SLK (Homo sapiens, UniProt Q9H2G2); inhibitor, KiNativ profiling; biochemical; 2 µM).
The inhibition of CCN(CC)CCOc1ccc(-c2nnn(Cc3ccc(OC)cc3)c2N)cc1 is reported as 14.8% (SCN5A (Homo sapiens, UniProt Q14524); ion channel; HEK293; 10 µM, with: 10000 nM).
C[C@H](NCc1ccc(-c2ccc(C(F)(F)F)cc2)cc1)C(N)=O gave an inhibition of 8% (KIT (Homo sapiens, UniProt P10721, D816V); cell-free assay, competition with immobilised ligand; 1 µM).
The tumour uptake of CC[C@H](C)[C@H](NC(=O)[C@H](CO)NC(=O)[C@H](Cc1ccc(O)cc1)NC(=O)[C@H](Cc1ccc(O)cc1)NC(=O)[C@H](CC(N)=O)NC(=O)CNC(=O)[C@H](CO)NC(=O)[C@H](Cc1ccc(O)cc1)NC(=O)[C@H](CO)NC(=O)[C@H](CO)NC(=O)[C@H](CC(N)=O)NC(=O)COCCOCCNC(=O)CN1CCN(CC(=O)O)CCN(CC(=O)O)CCN(CC(=O)O)CC1)C(=O)N[C@@H](CC(C)C)C(N)=O [copper-64 labelled] is reported as 13.8 %ID/mL (dynamic PET; KPC mouse, pancreatic cancer model, tumor; intravenous, 0.9 min, 49 days after tamoxifen).

Some of these lines once more:
The inhibition of CN[C@@H]1[C@H](O)[C@H](NC)[C@H]2O[C@]3(O)[C@H](O[C@@H]2[C@H]1O)O[C@H](C)C[C@H]3NC(=O)Cc1ccc(Cl)cn1 is reported as 13% (CYSLTR1 (Homo sapiens, UniProt Q9Y271); ligand displacement, radioligand; 10 µM).
The inhibition of O=C(O)c1ccccc1/C=N/Nc1nc(-c2ccccc2Cl)cs1 is reported as -5.12% (NTRK3 (Homo sapiens, UniProt Q16288); enzyme activity, inhibitor; 1 µM).
